Published values pooled from the literature.
Each numbered part is a random draw from the data of one study; scales do not carry over between parts. Positions count from the first letter of the parent shown.

Set 1
Organism: Saccharomyces cerevisiae
Read-out: binding
Technique: yeast competitive growth sequencing
Molecule type: peptide
Strain: cyclin D1-Cln2 strain
Sample: peptide tiling library
Reading: direction not given
Endpoint: enrichment score
GLPDFVFQQQPVESEA: 1.85
PKNAKRNLSSEFAN: -0.523
SAVPLILPQAPSGPSY: 2.62
DTERAHSTLDEDLERW: 1.37
KPHVSDEEEEEPPFYH: 1.86
DGCSPIKNWSPMRL: 1.59
PKRAKRKLYTSEISSP: -0.966
SMTDFYHSKRRLIFSK: -0.85
FQDSGYNELKSCSFDN: 1.47
SSEVARHLLFQSHM: -0.312

Set 2
Target: ABI1, truncated, D143A, DHFR fusion (Arabidopsis thaliana)
Technique: DHFR PCA, deep sequencing
Sample: yeast
Setting: methotrexate growth selection, single substitutions
Added: (+)-ABA 0.0091 µM
Relative to: wild-type fitted maximum
Reading: higher = stronger binding
Endpoint: relative binding score
Starting sequence: PYL1, truncated, DHFR fusion (Arabidopsis thaliana); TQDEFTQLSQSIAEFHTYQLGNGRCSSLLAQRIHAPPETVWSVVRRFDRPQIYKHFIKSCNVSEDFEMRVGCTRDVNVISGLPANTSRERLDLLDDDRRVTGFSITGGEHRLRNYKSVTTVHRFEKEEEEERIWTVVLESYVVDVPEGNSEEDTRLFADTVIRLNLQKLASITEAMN; partner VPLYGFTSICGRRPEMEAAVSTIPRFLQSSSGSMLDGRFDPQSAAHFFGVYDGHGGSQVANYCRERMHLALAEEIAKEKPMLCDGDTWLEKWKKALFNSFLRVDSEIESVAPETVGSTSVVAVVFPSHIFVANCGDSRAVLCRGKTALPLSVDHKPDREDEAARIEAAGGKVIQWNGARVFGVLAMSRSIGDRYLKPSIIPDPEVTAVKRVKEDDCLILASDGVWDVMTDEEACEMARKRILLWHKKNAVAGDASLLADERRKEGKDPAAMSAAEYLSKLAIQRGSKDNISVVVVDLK
V43I: 47.2%
F56K: -8.53%
P83A: 25.3%
R46F: -6.67%
R46W: -0.402%
T160L: 4.48%
N177A: 39.8%
V121I: 6.49%
V78Q: 3.35%
R123I: -6.34%
L82E: 8.66%
I133K: 13.7%
T106R: -1.29%
T154S: -0.189%
K168S: 14.1%
K168H: 22.2%

Set 3
Target: RNA binding protein fox-1 homolog 2, RRM domain, GST-SBP tag (RBFOX2, Homo sapiens, UniProt O43251-10, residues 100-194)
Technique: RNA Bind-n-Seq
Molecule type: RNA
Sample: in vitro
Tested at: 365 nM
Setting: natural RNA segment, single round, ends assumed
Relative to: no-protein control
Reading: higher = stronger binding
Endpoint: RBNS enrichment (R)
Target sequence (chain): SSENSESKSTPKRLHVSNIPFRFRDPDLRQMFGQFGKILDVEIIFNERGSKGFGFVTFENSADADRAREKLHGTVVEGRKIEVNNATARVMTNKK
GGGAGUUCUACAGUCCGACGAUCUUUUUGUUGGUUUAUUAUAAAUUAUUCUUCUAGAUGCAUCUUUUAUAACUAGGAUUUCAUUUUGUGUGUAUAGCUUAUGUAAUAAAUUUUAAAGGUGAAAACUCUCUUAAUGGAAUUCUCGGGUGCCAA: 0.698
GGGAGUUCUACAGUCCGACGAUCCUCCAGCGGCAGGGCAUGGUUCUUGGCAGCCUGGUGUCCACACGGUGCAUUCCUGUCCCCCUCGGCCCCAGGCUGGCUCAGCUCUCCAGUGCUGCGGCGCUGUCUUUGCAUGGAAUUCUCGGGUGCCAA: 1.18
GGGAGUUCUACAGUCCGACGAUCAUCUGUGAACAUUGUGCUAUGUUCCACCUUGUUUGAAAACUGUGAAACAGUGUGGCAUGCCAACAUCUCUAUAGUGAUUUUUACACGUGAUGUAUUCGGUGUAGCUGAGGUGGAAUUCUCGGGUGCCAA: 1.04
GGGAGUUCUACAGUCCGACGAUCUGAGAGGGAGACGGUAGGCCUUACCACUCAGACCUGGACGUAUAAGUGCUCACUUUUCCAACACAUCACAGCGAUAGUCCUUAUUGCUAAAGGACUUGGCUUCCCUCGGAUGGAAUUCUCGGGUGCCAA: 0.255
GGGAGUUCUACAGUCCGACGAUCGUCCAACACAAAGGUAUAAUACAGCCUGUUGUCUAAAGCCAAGGAGUCAUAAAACCAUGAGAAAUAAAUAGGAAUCAAUAGUUAGUAGUGACAUUGGUGCUCUCUAGAAAUGGAAUUCUCGGGUGCCAA: 0.572
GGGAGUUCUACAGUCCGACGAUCAGCCUUGCCGUGUGCUGCUUCUCAUCACUGCACACAAGUGCCAUGCUUUGCCACCACCACCAAGCACAUCUGUGAUCCUGAAGGGCGGCCGUUAGUCAUUACUGCUGAGUUGGAAUUCUCGGGUGCCAA: 0.463
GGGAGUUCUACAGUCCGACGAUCUUCAGGGGCUGCCCGCUCCCAGUGUCUUCCUGUGGGGGAAGAGCACAGCCCUCCCGCCCCUUCCCCGAGGGAUGAUGCCACACCAAGCUGUGCCACCCUGGGCUCUGUGGUGGAAUUCUCGGGUGCCAA: 0.444
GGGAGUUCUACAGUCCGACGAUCAUGAUAUCUAGGCAUAACCUAGCCUGUGAGGAACCUAGUUAGGAAAGACAACUGACAUUUAUUGAAUAUCAUGCACUAGUCCCUUACAUAUGUCAUAUUUUAAUUAUAGAUGGAAUUCUCGGGUGCCAA: 0.913

Set 4
Target: Fragile X messenger ribonucleoprotein 1, C-terminal low-complexity region (Fmr1, Mus musculus, UniProt P35922)
Technique: RNA Bind-n-Seq
Molecule type: RNA
Sample: in vitro
Tested at: 200 nM
Setting: whole 134-nt RNA, ends assumed
Added: 150 mM LiCl
Relative to: input library
Reading: higher = stronger binding
Endpoint: log2 enrichment
Library: 7-deaza-guanosine replaces G
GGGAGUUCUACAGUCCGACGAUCUCCUGUGCUACACAUCGUAUGUACCGAAUCGGGCCCCCCGGGGCCCCCCGGCCCCCCGGGAAAGUAUUAUGUUACGCCGUUCGGAUCUGCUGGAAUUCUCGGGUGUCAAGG: -2.82
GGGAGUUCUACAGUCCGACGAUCCAAGUCCUGUGCUACACAUCGUAUGUACCGAAUCGGGUUUGGUUUGGGGUUUGGGAAAGUAUUAUGUUACGCCGUUCGGAUCUGCACUUCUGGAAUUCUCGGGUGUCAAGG: -1.79
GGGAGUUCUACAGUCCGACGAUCGCAGGAAGUAAAAACAAAUGGAAAUGCUUCGGAUAGUGGCAGGGGUGGGGGUUGCUAAGGAAAGGGUGGGAUGGGAAUGGGUAAAGAGUUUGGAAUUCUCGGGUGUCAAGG: 1.32
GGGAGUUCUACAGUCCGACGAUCUGUGCUACACAUCGUAUGUACCGAAUCGGGGUUUUUUUGGGGUUUUUGGGGUUUUUUUGGGGAAAGUAUUAUGUUACGCCGUUCGGAUCUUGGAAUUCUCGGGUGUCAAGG: 1.76
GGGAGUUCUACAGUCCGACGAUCCCUCAAGUCCUGUGCUACACAUCGUAUGUACCGAAUCGGAAGGAAGGAAGGGAAAGUAUUAUGUUACGCCGUUCGGAUCUGCACUUCCAGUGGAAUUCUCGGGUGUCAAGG: -0.341
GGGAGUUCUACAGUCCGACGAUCCAUCAAAAUAGCUACAAACCAUACUAAAUUAUUCCAUUUGCAACUUAUCCCCAACAGGUAUGUUCUAAAAAUAGUUUUUUUUUGUCAUUUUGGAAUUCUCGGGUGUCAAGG: -0.535
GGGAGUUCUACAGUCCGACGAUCUCAAGUCCUGUGCUACACAUCGUAUGUACCGAAUCGGGGAGGGGAGGGGAGGGGAAAGUAUUAUGUUACGCCGUUCGGAUCUGCACUUCCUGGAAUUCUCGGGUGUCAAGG: 0.25
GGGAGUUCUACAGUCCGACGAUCUAGUGAUGAAAAAUUUCUCCCUUCUAGGUUUCCCUUGGGGGCUUUGAAAUAACACCACCAGUGGUCUUAAGGUUGAAGUGUGGUUCAGGGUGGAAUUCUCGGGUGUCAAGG: -1.64

Set 5
Target: Sal-like protein 4, full length isoform A (SALL4, Homo sapiens, UniProt Q9UJQ4, residues 1-1053)
UniProt Q9UJQ4, sequence (whole entry, looked up): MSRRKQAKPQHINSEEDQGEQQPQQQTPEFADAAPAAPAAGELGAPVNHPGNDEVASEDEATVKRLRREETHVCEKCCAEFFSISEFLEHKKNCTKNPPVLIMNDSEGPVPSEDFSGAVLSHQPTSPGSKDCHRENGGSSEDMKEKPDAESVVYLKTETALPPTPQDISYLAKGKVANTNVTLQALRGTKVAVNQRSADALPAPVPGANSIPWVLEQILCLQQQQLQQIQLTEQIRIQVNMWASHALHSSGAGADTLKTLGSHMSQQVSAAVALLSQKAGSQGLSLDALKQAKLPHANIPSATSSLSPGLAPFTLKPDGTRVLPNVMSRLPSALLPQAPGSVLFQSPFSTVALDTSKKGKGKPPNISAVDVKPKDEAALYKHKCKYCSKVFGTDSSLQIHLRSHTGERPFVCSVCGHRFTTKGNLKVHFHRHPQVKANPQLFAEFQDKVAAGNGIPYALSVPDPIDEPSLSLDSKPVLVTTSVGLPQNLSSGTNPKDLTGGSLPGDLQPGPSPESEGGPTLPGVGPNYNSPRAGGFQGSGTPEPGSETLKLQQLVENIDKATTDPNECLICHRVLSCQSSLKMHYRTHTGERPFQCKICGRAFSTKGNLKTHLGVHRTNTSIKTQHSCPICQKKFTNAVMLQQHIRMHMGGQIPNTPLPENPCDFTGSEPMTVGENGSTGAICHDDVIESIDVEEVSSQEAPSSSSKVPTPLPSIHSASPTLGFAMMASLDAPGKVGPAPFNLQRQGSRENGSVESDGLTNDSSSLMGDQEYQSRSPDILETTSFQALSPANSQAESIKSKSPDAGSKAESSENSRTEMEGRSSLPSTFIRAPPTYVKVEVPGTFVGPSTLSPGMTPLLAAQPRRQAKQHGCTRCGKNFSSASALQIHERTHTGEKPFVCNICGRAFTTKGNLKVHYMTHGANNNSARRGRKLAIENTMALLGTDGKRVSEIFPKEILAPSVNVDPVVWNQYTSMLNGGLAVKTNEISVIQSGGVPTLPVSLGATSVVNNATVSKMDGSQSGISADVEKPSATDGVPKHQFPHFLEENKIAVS
Technique: universal PBM
Molecule type: double-stranded DNA, one strand shown
Sample: in vitro
Tested at: 600 nM
Setting: 8-mer, flanks averaged, mean of replicates
Reading: higher = stronger binding
Endpoint: E-score
CAACAAAA: 0.25
CCATTCGA: 0.0517
ATGCGGAG: -0.253
TAACCAAA: 0.235
ACTTATTG: 0.25
GGGCGACA: -0.294
ATCGCGTG: -0.0694
CCCTGCCA: -0.124
GGCTGTCA: -0.208
AAATAGAA: 0.175
GACCTGAA: -0.117
CTTACAGC: 0.0604
CCCCAACA: -0.157
CGATGGAC: -0.075
CAGGTCGC: -0.135
AGAGTACA: 0.0345
GACGTGAC: -0.0766
AATAGCAC: -0.0476
AGCATGAG: -0.0671
AGGCTAGG: -0.254
ACACGGAT: 0.054
ACAGCAAC: -0.0177
GCGGCGCA: -0.172
CGGCCCAG: -0.407
AGGTCTTC: -0.16

Some of these lines once more (set 2):
R123I: -6.34%
V121I: 6.49%
T154S: -0.189%
R46W: -0.402%
R46F: -6.67%
V43I: 47.2%
F56K: -8.53%
V78Q: 3.35%
P83A: 25.3%
K168H: 22.2%
T160L: 4.48%
